Assay results collected from several papers.
Each numbered part is a random draw from the data of one study; scales do not carry over between parts. Positions count from the first letter of the parent shown.

Sample 1 — target: CCND1, cyclin fold, Cln2 fusion (human); technique: yeast growth competition, sequencing; matrix: yeast; setting: weak parent motif; relative to: not given; direction: higher = stronger binding; parent: viral docking peptide; TSVRRALFTGGSD
| Change | normalised enrichment score |
| --- | --- |
| V3E | 0.111 |
| T9I | 0.385 |
| S2R | 0.428 |
| R5A | 0.276 |
| V3T | 0.418 |
| T9S | 0.17 |
| G10H | 0.0288 |
| L7W | 0.221 |
| G11I | 0.177 |
| R5Y | 0.0958 |
| S12V | 0.368 |
| G10L | 0.508 |
| S2H | 0.535 |
| G10T | 0.179 |
| R4W | 0.848 |
| L7M | 0.184 |
| S12G | 0.0854 |
| S2E | 0.39 |
| L7D | 0.0746 |

Sample 2 — technique: universal PBM; form: double-stranded DNA, one strand shown; matrix: in vitro; tested at: 600 nM; direction: higher = stronger binding
Target: Sal-like protein 4, full length isoform A (SALL4, Homo sapiens, UniProt Q9UJQ4, residues 1-1053)
Chain of UniProt Q9UJQ4 (whole entry, looked up): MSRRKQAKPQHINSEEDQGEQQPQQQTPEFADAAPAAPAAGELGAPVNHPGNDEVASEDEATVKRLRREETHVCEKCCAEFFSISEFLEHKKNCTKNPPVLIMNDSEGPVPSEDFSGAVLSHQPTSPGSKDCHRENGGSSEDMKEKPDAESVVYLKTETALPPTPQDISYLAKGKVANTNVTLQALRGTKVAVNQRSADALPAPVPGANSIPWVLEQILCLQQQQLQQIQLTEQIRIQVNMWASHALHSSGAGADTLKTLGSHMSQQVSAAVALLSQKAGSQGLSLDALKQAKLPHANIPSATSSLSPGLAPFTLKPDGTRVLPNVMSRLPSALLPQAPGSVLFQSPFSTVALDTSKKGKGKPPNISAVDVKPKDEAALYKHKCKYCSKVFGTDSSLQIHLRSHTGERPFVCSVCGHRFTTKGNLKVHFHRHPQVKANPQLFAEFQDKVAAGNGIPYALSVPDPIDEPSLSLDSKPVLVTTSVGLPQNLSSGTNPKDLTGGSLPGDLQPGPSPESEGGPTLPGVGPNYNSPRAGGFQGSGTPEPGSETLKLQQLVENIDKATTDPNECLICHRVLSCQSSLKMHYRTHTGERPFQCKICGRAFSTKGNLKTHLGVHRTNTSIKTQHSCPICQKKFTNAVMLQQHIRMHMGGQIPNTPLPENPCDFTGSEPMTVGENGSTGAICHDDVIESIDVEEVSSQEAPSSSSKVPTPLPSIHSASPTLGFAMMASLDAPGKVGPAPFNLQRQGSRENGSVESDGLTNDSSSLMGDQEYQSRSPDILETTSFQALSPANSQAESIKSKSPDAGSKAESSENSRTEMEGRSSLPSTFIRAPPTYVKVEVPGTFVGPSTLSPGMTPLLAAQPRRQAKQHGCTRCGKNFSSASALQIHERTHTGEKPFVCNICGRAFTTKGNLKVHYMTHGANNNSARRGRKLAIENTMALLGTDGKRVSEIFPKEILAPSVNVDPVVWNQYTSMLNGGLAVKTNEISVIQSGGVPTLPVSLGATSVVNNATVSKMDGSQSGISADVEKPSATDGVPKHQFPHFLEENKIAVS
Setting: 8-mer, flanks averaged, mean of replicates
| Oligonucleotide | E-score |
| --- | --- |
| TAGGGCAA | -0.0469 |
| CCTTCGCC | -0.218 |
| AATAAAAA | 0.376 |
| ATGTAAAC | 0.248 |
| AGTTACTG | 0.0471 |
| GCTCTAGA | -0.202 |
| CCGTCTCC | -0.306 |
| GATCTAGA | 0.00874 |

Sample 3 — target: vanadate, free oxyanion; technique: microfluidic competitive inhibition; matrix: in vitro, cell-free expressed; tested at: not given; direction: lower = stronger binding
Setting: derived from inhibition constants, unchanged parent 676 nM
Parent: PafA, mature enzyme, eGFP fusion (Elizabethkingia meningoseptica, UniProt Q9KJX5); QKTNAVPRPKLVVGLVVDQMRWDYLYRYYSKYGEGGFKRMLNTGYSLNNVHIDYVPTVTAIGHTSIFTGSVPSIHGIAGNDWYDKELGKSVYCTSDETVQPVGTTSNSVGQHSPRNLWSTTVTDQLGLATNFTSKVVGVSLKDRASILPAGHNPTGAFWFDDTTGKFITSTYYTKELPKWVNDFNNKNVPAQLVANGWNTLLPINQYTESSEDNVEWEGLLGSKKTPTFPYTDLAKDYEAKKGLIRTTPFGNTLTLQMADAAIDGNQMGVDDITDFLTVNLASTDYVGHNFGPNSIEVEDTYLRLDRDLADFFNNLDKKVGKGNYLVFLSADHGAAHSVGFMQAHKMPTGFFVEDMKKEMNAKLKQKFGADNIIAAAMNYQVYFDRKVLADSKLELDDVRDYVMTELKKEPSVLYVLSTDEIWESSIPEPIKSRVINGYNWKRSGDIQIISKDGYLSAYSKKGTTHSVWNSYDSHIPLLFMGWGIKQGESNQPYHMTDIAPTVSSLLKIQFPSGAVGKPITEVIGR
| Change | oxyanion analog dissociation constant |
| --- | --- |
| S513V | 1.07 µM |
| R8G | 588 nM |
| T405V | 581 nM |
| V102A | 516 nM |
| K442V | 1.59 µM |
| T419G | 977 nM |
| H51V | 664 nM |
| S106V | 504 nM |
| K318G | 615 nM |
| L479G | 500 nM |
| S474G | 664 nM |
| E297V | 692 nM |
| A240V | 692 nM |
| L309V | 830 nM |
| Q381G | 732 nM |
| G79V | 1.98 µM |
| D371V | 755 nM |
| L87G | 542 nM |

Mixed results — technique: cross-linking MS
| Substance | partner | matrix | setting | together with | endpoint | result |
| --- | --- | --- | --- | --- | --- | --- |
| DDX5 (Homo sapiens, UniProt P17844) | RBMX (Homo sapiens, UniProt P38159) |  | hits only |  | interaction screen | cross-linked |
| FAM98A (Homo sapiens, UniProt Q8NCA5) | RTRAF (Homo sapiens, UniProt Q9Y224) | cell fractions |  | DSSO | cross-linked residues | K277 to T192 |
| SF3A2 (Homo sapiens, UniProt Q15428) | SF1 (Homo sapiens, UniProt Q15637) | cell fractions |  | DSSO | cross-linked residues | K42 to K306 |
| MPHOSPH6 (Homo sapiens, UniProt Q99547) | EXOSC3 (Homo sapiens, UniProt Q9NQT5) |  | hits only |  | interaction screen | cross-linked |

Excerpt of the above (sample 1):
| Change | normalised enrichment score |
| --- | --- |
| G11I | 0.177 |
| R5Y | 0.0958 |
| S12V | 0.368 |
